Assay results gathered from unrelated publications.
Protocols differ between the studies behind these lines. “And” joins repeats or separate records; there may be more than shown. Numbers after ± are the reported error.

| Structure (SMILES) | test | test system | setting | how to read | endpoint | result |
| --- | --- | --- | --- | --- | --- | --- |
| CCN(C)C(=O)Oc1ccccc1/C=C1\Cc2cc(OC)c(OC)cc2C1=O |  | male Sprague-Dawley rat, plasma | oral, 100 mg/kg, single dose |  | AUC(0-t) | 2860 ng·h/mL |
| CCCCCCCCCCCCCCCC(=O)N[C@@H](CCC(=O)NCCOCCOCCC(=O)NCCOCCOCCC(=O)NCCCC[C@H](NC(=O)[C@H](CC(=O)O)NC(=O)[C@H](CC(C)C)NC(=O)[C@H](Cc1ccc(O)cc1)NC(=O)[C@H](CCCCN)NC(=O)[C@H](CO)NC(=O)[C@H](Cc1ccc(O)cc1)NC(=O)[C@H](CC(=O)O)NC(=O)[C@H](CO)NC(=O)[C@@H](NC(=O)[C@H](Cc1ccccc1)NC(=O)[C@@H](NC(=O)CNC(=O)[C@H](CCC(N)=O)NC(=O)[C@@H](CO)NC(=O)[C@@H](N)Cc1c[nH]cn1)[C@@H](C)O)[C@@H](C)O)C(=O)N[C@@H](CCCNC(=N)N)C(=O)N[C@@H](CCCNC(=N)N)C(=O)N[C@@H](C)C(=O)N[C@@H](CCC(N)=O)C(=O)N[C@@H](CC(=O)O)C(=O)N[C@@H](Cc1ccccc1)C(=O)N[C@H](C(=O)N[C@@H](CCC(N)=O)C(=O)N[C@@H](Cc1c[nH]c2ccccc12)C(=O)N[C@@H](CC(C)C)C(=O)N[C@@H](CC(C)C)C(=O)N[C@@H](CC(N)=O)C(=O)N[C@H](C(=O)NCC(=O)NCC(=O)N1CCC[C@H]1C(=O)N[C@@H](CO)C(=O)N[C@@H](CO)C(=O)NCC(=O)N[C@@H](C)C(=O)N1CCC[C@H]1C(=O)N1CCC[C@H]1C(=O)N1CCC[C@H]1C(=O)N[C@@H](CO)C(N)=O)[C@@H](C)O)C(C)C)C(=O)O |  | Sprague-Dawley rat, male | subcutaneous, 500 µg/kg once daily, 14 days |  | total bilirubin | 1.4 ± 0.2 µmol/L |
| COc1ccc(C([O-])=CC(=O)c2ccc(C(C)(C)C)cc2)cc1.[Ru+2].c1ccc(-c2ccnc3c2ccc2c(-c4ccccc4)ccnc23)cc1.c1ccc(-c2ccnc3c2ccc2c(-c4ccccc4)ccnc23)cc1 |  | zebrafish larvae | 10 µM, 96 h, dark | reference: normal | viability | 100% |
| O=C1NC2(CC2)COc2ncc(F)cc2[C@H]2COCCN2c2ccn3ncc1c3n2 |  | Sprague-Dawley rat, female, spleen | oral, 5 mg/kg/day, 4 weeks, end of treatment |  | organ-to-brain weight ratio | 56 ± 9.29% |
| C[C@H](O)[C@@H](NC(=O)[C@H]1CCCN1C(=O)[C@@H](CCCCN)NC(=O)[C@@H](CO)NC(=O)[C@@H](Cc1ccc(O)cc1)NC(=O)[C@@H](CC(N)=O)NC(=O)CCOCCOCCOCCNC(=O)CN1CCN(CC(=O)O)CCN(CC(=O)O)CCN(CC(=O)O)CC1)C(=O)N[C@H](CC(=O)O)C(=O)N[C@H](CCCNC(=N)N)C(=O)N[C@H](CCC(N)=O)C(=O)N[C@H](Cc1ccc(O)cc1)C(=O)N[C@H](Cc1c[nH]cn1)C(=O)N[C@H](Cc1ccccc1)C(N)=O [copper-64 labelled] | ex vivo gamma counting | C57BL/6J mouse, normal, small intestine | intravenous, 1.85 MBq, 20 min |  | tissue uptake | 1.36 ± 0.36 %ID/g |
| CN1Cc2cc(Cl)ccc2-n2c(nnc2C2CCN(c3cccc([18F])n3)CC2)C1 |  | C57BL/6 mouse male, blood | intravenous, dose not given, 30 min, together with: blocking agent 10 mg/kg |  | tissue uptake | 3.01 ± 0.8 %ID/g |
| N=C(N)NCCC[C@@H](NC(=O)[C@H](N)Cc1c[nH]c2ccccc12)C(=O)N[C@H](CCCCN)C(=O)N[C@H](Cc1c[nH]c2ccccc12)C(=O)N[C@H](CCCNC(=N)N)C(=O)N[C@H](CCCCN)C(=O)N[C@H](Cc1c[nH]c2ccccc12)C(=O)N[C@H](CCCNC(=N)N)C(=O)N[C@H](CCCCN)C(=O)N[C@H](Cc1c[nH]c2ccccc12)C(=O)N[C@H](CCCNC(=N)N)C(=O)N[C@H](CCCCN)C(N)=O |  | mouse, serum | 20 mg/kg |  | cystatin C level | 41.8 ng/mL |
| C/C(=N\OCCCN1CCCCC1)c1ccc(C(F)(F)F)cc1 |  | rhesus monkey | dose not given, after dosing |  | diastolic blood pressure | 69 mmHg and 90 mmHg |
| CC[C@H](C)[C@H](NC(=O)[C@H](CCCCN)NC(=O)CNC(=O)[C@H](CC(C)C)NC(=O)[C@H](Cc1ccccc1)NC(=O)[C@H](CCCCN)NC(=O)[C@H](CO)NC(=O)[C@H](Cc1ccccc1)NC(=O)[C@H](Cc1c[nH]c2ccccc12)NC(=O)[C@H](CCC(N)=O)NC(=O)[C@@H](NC(=O)[C@H](Cc1ccccc1)NC(=O)CCCCCNC(=O)CN1CCN(CC(=O)O)CCN(CC(=O)O)CCN(CC(=O)O)CC1)C(C)C)C(=O)N[C@@H](CCC(=O)O)C(=O)N1CCC[C@H]1C(=O)N[C@@H](CC(=O)O)C(=O)N[C@H](C(=O)N[C@@H](CO)C(=O)N[C@@H](CCC(N)=O)C(=O)N[C@H](C(=O)N[C@@H](CCC(N)=O)C(=O)N[C@@H](CC(=O)O)C(=O)N1CCC[C@H]1C(=O)N[C@@H](CC(N)=O)C(=O)N[C@@H](CC(=O)O)C(=O)N[C@@H](CCC(N)=O)C(=O)N[C@@H](Cc1ccc(O)cc1)C(=O)N[C@@H](CCC(=O)O)C(=O)N1CCC[C@H]1C(=O)N[C@@H](Cc1ccccc1)C(=O)O)C(C)C)C(C)C [copper-64 labelled] |  | C57BL/6 mice, male, tumour-free, spleen | 24 h |  | tissue uptake | 2.07 ± 0.09 %ID/g |
| COc1cnc2cccc(N3CCc4c(cc(Cn5ccnc5)cc4-c4cn(C)nc4C(F)(F)F)C3=O)c2c1 |  | BALB/c nude mice, MV4-11 xenograft | intraperitoneal, 100 mg/kg, day 35 |  | body weight | 22.5 g and 23.7 g and 20.7 g and 24.7 g and 23.1 g |
| CC(C)Oc1c(NC(=O)c2ccc(NC(=O)[C@H](CC(N)=O)NC(=O)c3ccc(/N=N/c4ccccc4)cc3)cc2)ccc(C(=O)Nc2ccc(C(=O)O)cc2)c1O | absorbance | DMSO | 45 °C, PSS to ground state relaxation |  | thermal half-life | 3.1 h |
| CSCC[C@H](N)C(=O)N[C@@H](C)C(=O)N[C@@H](Cc1c[nH]c2ccccc12)C(=O)N[C@@H](Cc1c[nH]cn1)C(=O)N[C@@H](CC(=O)O)C(=O)N[C@@H](CC(=O)O)C(=O)N[C@@H](CCC(=O)O)C(=O)N[C@@H](CCC(=O)O)C(=O)N[C@@H](Cc1ccccc1)C(=O)N[C@@H](C)C(=O)N[C@@H](CCCNC(=N)N)C(=O)N[C@@H](CCCNC(=N)N)C(=O)N[C@@H](CCCNC(=N)N)C(=O)N[C@@H](CCCNC(=N)N)C(=O)NCCCCCC(=O)NCCCCC(NC(=O)CCCCCNC(=O)[C@H](CCCNC(=N)N)NC(=O)[C@H](CCCNC(=N)N)NC(=O)[C@H](CCCNC(=N)N)NC(=O)[C@H](CCCNC(=N)N)NC(=O)[C@H](C)NC(=O)[C@H](Cc1ccccc1)NC(=O)[C@H](CCC(=O)O)NC(=O)[C@H](CCC(=O)O)NC(=O)[C@H](CC(=O)O)NC(=O)[C@H](CC(=O)O)NC(=O)[C@H](Cc1c[nH]cn1)NC(=O)[C@H](Cc1c[nH]c2ccccc12)NC(=O)[C@H](C)NC(=O)[C@@H](N)CCSC)C(=O)NCCCCC(NC(=O)C(CCCCNC(=O)CCCCCNC(=O)[C@H](CCCNC(=N)N)NC(=O)[C@H](CCCNC(=N)N)NC(=O)[C@H](CCCNC(=N)N)NC(=O)[C@H](CCCNC(=N)N)NC(=O)[C@H](C)NC(=O)[C@H](Cc1ccccc1)NC(=O)[C@H](CCC(=O)O)NC(=O)[C@H](CCC(=O)O)NC(=O)[C@H](CC(=O)O)NC(=O)[C@H](CC(=O)O)NC(=O)[C@H](Cc1c[nH]cn1)NC(=O)[C@H](Cc1c[nH]c2ccccc12)NC(=O)[C@H](C)NC(=O)[C@@H](N)CCSC)NC(=O)CCCCCNC(=O)[C@H](CCCNC(=N)N)NC(=O)[C@H](CCCNC(=N)N)NC(=O)[C@H](CCCNC(=N)N)NC(=O)[C@H](CCCNC(=N)N)NC(=O)[C@H](C)NC(=O)[C@H](Cc1ccccc1)NC(=O)[C@H](CCC(=O)O)NC(=O)[C@H](CCC(=O)O)NC(=O)[C@H](CC(=O)O)NC(=O)[C@H](CC(=O)O)NC(=O)[C@H](Cc1c[nH]cn1)NC(=O)[C@H](Cc1c[nH]c2ccccc12)NC(=O)[C@H](C)NC(=O)[C@@H](N)CCSC)C(N)=O (stereo partly drawn) |  | C57BL/6 mouse female, stomach | dose not given, 3 h | reference: total | tissue distribution | 34.9% and 36.9% and 34.5% |

Excerpt of the above:
| Structure (SMILES) | test | test system | setting | how to read | endpoint | result |
| --- | --- | --- | --- | --- | --- | --- |
| N=C(N)NCCC[C@@H](NC(=O)[C@H](N)Cc1c[nH]c2ccccc12)C(=O)N[C@H](CCCCN)C(=O)N[C@H](Cc1c[nH]c2ccccc12)C(=O)N[C@H](CCCNC(=N)N)C(=O)N[C@H](CCCCN)C(=O)N[C@H](Cc1c[nH]c2ccccc12)C(=O)N[C@H](CCCNC(=N)N)C(=O)N[C@H](CCCCN)C(=O)N[C@H](Cc1c[nH]c2ccccc12)C(=O)N[C@H](CCCNC(=N)N)C(=O)N[C@H](CCCCN)C(N)=O |  | mouse, serum | 20 mg/kg |  | cystatin C level | 41.8 ng/mL |
